Experimental data from different studies.
Each numbered part is a random draw from the data of one study; scales do not carry over between parts.

Block 1 — method: RNA Bind-n-Seq; form: RNA; sample: in vitro; tested at: 365 nM; relative to: no-protein control; direction: higher = stronger binding
Target: RNA binding protein fox-1 homolog 2, RRM domain, GST-SBP tag (RBFOX2, Homo sapiens, UniProt O43251-10, residues 100-194)
Notes: natural RNA segment, single round, ends assumed
Shared flanks, not repeated: GGGAGUUCUACAGUCCGACGAUC … UGGAAUUCUCGGGUGCCAA
Residues (chain): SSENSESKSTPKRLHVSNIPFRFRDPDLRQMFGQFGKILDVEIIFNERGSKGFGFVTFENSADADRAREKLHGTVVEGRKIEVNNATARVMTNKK
Oligonucleotide	RBNS enrichment (R)
UUCCAUUUUCCAGCUAUAGAGAGAAACAAUCCAGCUGCCUGGAAACUGUUAUUAGUAUAGAAGUGGCUUAAAGAAAAGCAUCUUCAAAUACUUGACUUAGCAUAUCUUUC	0.423
UGGAAAGUCAUGCAAUCCCAUUUGCAGGAUCUGUCUGUGCACAUGCCUCUGUAGAGAGCAGCAUUCCCAGGGACCUUGGAAACAGUUGGCACUGUAAGGUGCUUGCUCCC	0.501
GUCCAACAACUCUGUAGAGCUCUCUGCACCCUUACCCCUUUCCACCUUUUGUAUUUAAUUUUAAAGUCAGUGUACUGCAAGGAAGCUGGAUGCAAGAUAGAUACUAUAUU	0.24
UAACAGAACAGUUCUAAUCCUGCCACGUGUUAUCAUUAUAGAUUUUAUAGUUGCCUUUCUAACUACUUAGCACAGUUUGAGAAUACGUUAAUUGCUAUUUACUAUUUAAA	0.829
UUAUUCGUGUUAGCUGAAAUGCAUUCAGACUUUGUUCUGCGGUGCCCACAGGACUUACCCCUGUAUGUACAGGAUUUUUGUAUGAAAGUUUUGUUUGAUUCUGAGACUCU	0.376
GCAGCUGUGAUUGUCAAGGAUCAGCUGUAAUGACUUCCUUGUUGCCUCUCCUGAAGUAUCACUCUACUAAAUGGUUAACAAACCAAUACUUUUAAAAUUGUACCCAAACC	1.06
UCUGUCCCUUGUGAAAGCAUGGCAGCUUCAGGCCCAUCUGCGGGCAUGUGGCUGUUUUUCCUGGGAUUGACUCCUGAAAUGGAAUGAGCAAUAGUGUAGCUUUUCUACGG	3.81
AGCACCCCGCCCCUCUGGGCACUGCCUGGAAGAAUCGGGAGCCUGGCCAGCCUUCAGCUCGCUCCUCCACUUCUGAGGGGCCUAGGAGGCCUCCCACAGGUGUCCCGGCA	4.14
UUCUAGAGGGCUGACCCUGAGCACUCCAGAGUGCUUGCAGAGUUUGAGAAAUGUGAACAUGCUGUGGGGCUGAGCCUCUGCUAUAUCACCGUGAGCUGUAGGAUCAGCUG	0.328
UCUUGCAUGAAAUAGAUUUACUCUGCCAAUUUUAUCCAUGUUCUUGCUAAGUCUAUUGAUGAUAUGAAUUGGAAAGGGAGAAUUUUGAAUAUGGUGAGAAAUUGGGAAAA	2.42
AAACUAUAGUACUGUGUAAUUAUGUAUAAAGGUUUUUUUAUUUAUUUGAAAUUAGGUUAGAUAUACAUUUUUAAAUUUAACAUCUGGCUGGACAGUGUUCUAUUAACUCA	1.2
ACUAAUCCUCUUUCAGGACCCUAAAGUUGCAGGUUAGUAGGUCUUCAAGGACAAAUCUGUAAGUUUCUUAUUUCUGUAGUGCAAGUAAAAUUUCACUUUUUGAAACUAUA	0.446

Block 2 — method: protein binding microarray; form: double-stranded DNA, one strand shown; sample: in vitro; tested at: not given; relative to: not given; direction: higher = stronger binding
Target: Histone acetyltransferase KAT6A, winged helix 2, GST fusion (KAT6A, Homo sapiens, UniProt Q92794, residues 85-181)
Notes: 8-mer, flanks averaged, mean of 2 arrays, mostly near background
Target sequence (chain): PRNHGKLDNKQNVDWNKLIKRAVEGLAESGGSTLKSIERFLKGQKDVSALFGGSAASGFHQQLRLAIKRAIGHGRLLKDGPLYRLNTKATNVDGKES
Oligonucleotide	E-score
CTTGAAAG	-0.0513
CGATAACG	-0.222
TCTCGTCA	0.065
AACGACTT	-0.184
CGAACAGC	0.111
GATTCGAA	0.112
CCGCCATC	0.073
CGCCGCAC	0.0943
CGCCACTA	0.0774
AAGGTTAG	-0.223
CTCACTAA	0.0101
ACGGGTTG	-0.0526
TAGGGACA	-0.0197
AAGGTAGC	0.0215
CGGAGTAA	0.0788
GCTAGGAA	0.0183
CTCGCGCA	0.0929
GACACAAC	-0.056
AAGCAGGT	0.0941

Block 3 — method: protein-binding microarray; form: hairpin DNA; sample: in vitro; tested at: not given; relative to: not given; direction: higher = stronger binding; shared flanks, not repeated: GCAGGCCC … GGGCCTGCACACTCTTTCCCTACACGAC
Target: Transcription factor SOX-2, HMG box (SOX2, Homo sapiens, UniProt P48431, residues 37-118)
UniProt P48431, sequence (37-118, looked up): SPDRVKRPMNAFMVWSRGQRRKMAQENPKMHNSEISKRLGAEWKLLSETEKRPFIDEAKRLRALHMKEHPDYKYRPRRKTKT
Notes: whole hairpin DNA, median over replicate spots
Oligonucleotide	median fluorescence [a.u.]
ACCGTGGGCCTCCTGGCCCACGGT (5mC at 29)	2330
ACAATCAGCCTCCTGGCTGATTGT	3110
ACACAGGGCCTCCTGGCCCTGTGT	2390
AGAATGGGCCTCCTGGCCCATTCT	2500
ACAATGGGCCTCCTGGCCCATTGT (5mC at 10)	2920
ACAACTGGCCTCCTGGCCAGTTGT (5mC at 13)	2510
CCAATGGGCCTCCTGGCCCATTGG (5mC at 9)	2540
GCAATGGGCCTCCTGGCCCATTGC (5mC at 32)	2500
GCAATGGGCCTCCTGGCCCATTGC (5mC at 8)	2430
ACACCGGGCCTCCTGGCCCGGTGT (5mC at 12)	2350
CTAATGGGCCTCCTGGCCCATTAG	2450
CCAATGGGCCTCCTGGCCCATTGG (5mC at 8)	2460
CGAATGGGCCTCCTGGCCCATTCG (5mC at 9)	2530
ACACGGGGCCTCCTGGCCCCGTGT (5mC at 28)	2360
ACAACGGGCCTCCTGGCCCGTTGT (5mC at 13)	2440
ACAATCGGCCTCCTGGCCGATTGT (5mC at 26)	2760

Block 4 — method: RNA Bind-n-Seq; form: RNA; sample: in vitro; tested at: 200 nM; notes: whole 134-nt RNA, ends assumed; together with: 150 mM LiCl; relative to: input library; direction: higher = stronger binding; library: 7-deaza-guanosine replaces G
Target: Ras GTPase-activating protein-binding protein 1, full length (G3BP1, Homo sapiens, UniProt Q13283)
UniProt Q13283, sequence (whole entry, looked up): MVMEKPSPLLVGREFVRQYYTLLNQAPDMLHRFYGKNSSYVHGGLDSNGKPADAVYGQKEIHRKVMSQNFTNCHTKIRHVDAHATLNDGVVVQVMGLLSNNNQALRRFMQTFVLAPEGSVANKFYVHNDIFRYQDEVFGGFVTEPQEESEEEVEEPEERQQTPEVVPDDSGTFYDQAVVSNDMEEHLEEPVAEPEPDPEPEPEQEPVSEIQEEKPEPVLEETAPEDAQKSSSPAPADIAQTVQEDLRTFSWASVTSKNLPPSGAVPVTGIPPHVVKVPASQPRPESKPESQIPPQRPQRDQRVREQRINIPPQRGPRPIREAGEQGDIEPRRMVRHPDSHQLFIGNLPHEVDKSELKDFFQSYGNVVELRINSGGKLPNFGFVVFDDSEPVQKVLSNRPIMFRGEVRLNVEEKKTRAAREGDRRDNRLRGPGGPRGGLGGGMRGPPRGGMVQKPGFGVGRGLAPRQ
Shared flanks, not repeated: GGGAGUUCUACAGUCCGACGAUC … UGGAAUUCUCGGGUGUCAAGG
Oligonucleotide	log2 enrichment
AAGUCCUGUGCUACACAUCGUAUGUACCGAAUCGGGUUUUGGUUUUGGGGUUUUGGGAAAGUAUUAUGUUACGCCGUUCGGAUCUGCACU	-0.0331
CUCAAGUCCUGUGCUACACAUCGUAUGUACCGAAUCGGAAAGGAGGAAAAAGGAAAGUAUUAUGUUACGCCGUUCGGAUCUGCACUUCCA	-0.432
CUGUGCUACACAUCGUAUGUACCGAAUCGGGCCCCCCCGGGGCCCCCCCGGGCCCCCCCGGGAAAGUAUUAUGUUACGCCGUUCGGAUCU	-0.783
AAGUCCUGUGCUACACAUCGUAUGUACCGAAUCGGGAAAAAAAGGGAGGGUUUGGGAAAGUAUUAUGUUACGCCGUUCGGAUCUGCACUU	-1.35
CACAGACAACACGCACCCACACAGACACAGAGGGAAGGGGUUGGGAUGGGGACAGGGUGCACAGCAGGGCGAGGUAGGACCCCAGCCCCU	0.124
GCAGGAAGUAAAAACAAAUGGAAAUGCUUCGGAUAGUGGCAGGGGUGGGGGUUGCUAAGGAAAGCGUGGGAUGGGAGUGGGUAAAGAGUU	0.122
AAGUCCUGUGCUACACAUCGUAUGUACCGAAUCGGAAAAGGGGAAAAGGGAAAAGGGAAAGUAUUAUGUUACGCCGUUCGGAUCUGCACU	0.305
UAACUUUAGAGGAGGAUCUGAUGGAUAUGGCAGUGGACGUGGAUUUGGGGAUGGCUAUAAUGGGUAUGGAGGAGGUCCUGGAGGUGGCAA	0.184
AAGUCCUGUGCUACACAUCGUAUGUACCGAAUCGGAAAAGGAAAAGGGGAAAAGGGGAAAGUAUUAUGUUACGCCGUUCGGAUCUGCACU	0.51
CCUGUGCUACACAUCGUAUGUACCGAAUCAAAUUUUUAAACCCCCCCAAACCCCCCCAAAAAAGUAUUAUGUUACGCCGUUCGGAUCUGC	0.302
UCCUGUGCUACACAUCGUAUGUACCGAAUCGGGUUUUUGGGAAAAAAAGGGAAAAAGGGAAAGUAUUAUGUUACGCCGUUCGGAUCUGCA	-1.38

Block 5 — method: universal PBM; form: double-stranded DNA, one strand shown; sample: in vitro; tested at: 600 nM; direction: higher = stronger binding
Target: Sal-like protein 4, full length isoform A (SALL4, Homo sapiens, UniProt Q9UJQ4, residues 1-1053)
UniProt Q9UJQ4, sequence (whole entry, looked up): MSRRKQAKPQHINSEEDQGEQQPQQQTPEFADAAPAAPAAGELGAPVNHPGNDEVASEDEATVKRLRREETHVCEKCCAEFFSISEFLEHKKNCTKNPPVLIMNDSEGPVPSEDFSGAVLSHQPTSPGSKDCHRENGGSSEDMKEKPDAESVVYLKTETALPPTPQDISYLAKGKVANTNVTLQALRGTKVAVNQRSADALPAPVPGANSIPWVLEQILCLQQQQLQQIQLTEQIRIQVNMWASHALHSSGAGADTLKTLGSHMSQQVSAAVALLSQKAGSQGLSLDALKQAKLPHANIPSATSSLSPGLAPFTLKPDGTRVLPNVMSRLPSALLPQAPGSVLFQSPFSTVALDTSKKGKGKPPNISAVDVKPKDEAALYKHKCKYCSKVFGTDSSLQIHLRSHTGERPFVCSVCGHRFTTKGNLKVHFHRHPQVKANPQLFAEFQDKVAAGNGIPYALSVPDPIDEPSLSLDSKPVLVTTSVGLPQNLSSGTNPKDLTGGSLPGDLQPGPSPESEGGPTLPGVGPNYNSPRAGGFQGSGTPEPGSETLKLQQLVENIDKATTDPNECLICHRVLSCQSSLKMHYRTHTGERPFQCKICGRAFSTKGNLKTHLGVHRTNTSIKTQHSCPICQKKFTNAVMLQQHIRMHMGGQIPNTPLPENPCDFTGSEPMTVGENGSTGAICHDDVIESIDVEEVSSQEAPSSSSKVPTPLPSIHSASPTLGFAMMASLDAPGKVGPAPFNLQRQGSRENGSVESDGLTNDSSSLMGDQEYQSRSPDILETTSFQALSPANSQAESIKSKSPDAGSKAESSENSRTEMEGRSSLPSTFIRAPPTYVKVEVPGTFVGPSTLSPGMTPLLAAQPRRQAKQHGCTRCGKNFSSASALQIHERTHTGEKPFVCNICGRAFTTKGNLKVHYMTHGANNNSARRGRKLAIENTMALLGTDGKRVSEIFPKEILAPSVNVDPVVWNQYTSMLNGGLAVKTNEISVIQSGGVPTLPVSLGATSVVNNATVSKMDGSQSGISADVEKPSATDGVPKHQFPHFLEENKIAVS
Notes: 8-mer, flanks averaged, mean of replicates
Oligonucleotide	E-score
ATTATCTA	0.309
CCGCCAAG	-0.277
ATTTGTCC	0.202
AACGAGGG	-0.00722
TCTATCAA	0.217
CCAGTTTA	0.0266
CAACACGC	-0.125
CCGGTATC	-0.182
CAAGCTAG	-0.16
AGCATAAC	0.204
GTAAAACA	0.195
AATTTTAA	0.375
CAATGTGA	0.209
AATGCGGA	-0.00347
ATTAGTCG	0.0706
CTATGATC	0.0906
GGCACCTA	-0.256
CGCGGATA	0.034
AGGTTCAG	-0.025
ACTAGCGA	-0.0124
CCTCAAAG	-0.116
AAGGAATT	0.213
GTTGCAGA	-0.0672
GAACCTCC	-0.202
AGCCTAAT	0.0651

Repeated from above (block 2):
Oligonucleotide	E-score
CGAACAGC	0.111
GATTCGAA	0.112
CCGCCATC	0.073
CGCCGCAC	0.0943
CGCCACTA	0.0774
AAGGTTAG	-0.223
CTCACTAA	0.0101
ACGGGTTG	-0.0526
TAGGGACA	-0.0197
AAGGTAGC	0.0215
CGGAGTAA	0.0788
GCTAGGAA	0.0183
CTCGCGCA	0.0929
GACACAAC	-0.056
